Published values of several laboratories.
A part holds a random share of what one study measured. Positions count from the first letter of the parent shown.

Study 1
Target: UBE2O UBC core domain (UniProt Q9C0C9)
Technique: yeast two-hybrid
Matrix: yeast
Notes: mostly zero background
Relative to: not given
Reading: higher = stronger interaction
B1: RC3H2 RING domain (UniProt Q9HBD1); chain QAAQWTEFLSCPICYNEFDENVHKPISLGCSHTVCKTCLNKLHRKACPFDQTAINTDIDVL
B2: TRIM69 RING domain (UniProt Q86WT6); chain VIQDITMELHCPLCNDWFRDPLMLSCGHNFCEACIQDFWRLQAKETFCPECKMLCQYNNCTF
B3: CUL9 RING domain (UniProt Q8IWT3); chain AQAVPVRPDHCPVCVSPLGCDDDLPSLCCMHYCCKSCWNEYLTTRIEQNLVLNCTCPIADCPAQPTGAFIR
B4: ARK2C RING domain (UniProt Q6ZSG1); chain EGEESDTDEKCTICLSMLEDGEDVRRLPCMHLFHQLCVDQWLAMSKKCPICRVDIETQLGAD
B5: IRF2BPL RING domain (UniProt Q9H1B7); chain SPMANSGPLCCTICHERLEDTHFVQCPSVPSHKFCFPCSRESIKAQGATGEVYCPSGEKCPLVGSNVP
B6: RNF170 RING domain (UniProt Q96K19); chain TRQQFYTDMYCPICLHQASFPVETNCGHLFCGACIIAYWRYGSWLGAISCPICRQTVTLLLTVF
Target sequence (chain): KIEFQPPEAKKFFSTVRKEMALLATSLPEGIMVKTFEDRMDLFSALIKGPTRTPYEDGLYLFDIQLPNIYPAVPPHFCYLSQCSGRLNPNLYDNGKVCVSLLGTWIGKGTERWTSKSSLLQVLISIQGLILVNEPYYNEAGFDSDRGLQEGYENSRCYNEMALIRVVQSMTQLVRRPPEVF
Sequence	lacZ reporter activity
YWAMDSTFELCKICAESNKDVKIEPCGHLLCSCCLAAWQHSDSQTCPFCRCEIKGWEAVS (CBLC RING domain (UniProt Q9ULV8))	0
DAIPSLSECQCGICMEILVEPVTLPCNHTLCKPCFQSTVEKASLCCPFCRRRVSSWTRYH (RNF168 RING domain (UniProt Q8IYW5))	0
DDENSDNSNECVVCLSDLRDTLILPCRHLCLCTSCADTLRYQANNCPICRLPFRALLQIR (MGRN1 RING domain (UniProt O60291))	0
PEELQAMDNVCIICREEMVTGAKRLPCNHIFHTSCLRSWFQRQQTCPTCRMDVLRASLPA (SYVN1 RING domain (UniProt Q86TM6))	0
B1 (RC3H2 RING domain)	0
B2 (TRIM69 RING domain)	0
B3 (CUL9 RING domain)	0
B4 (ARK2C RING domain)	0
RLTMMWEEVTCPICLDPFVEPVSIECGHSFCQECISQVGKGGGSVCPVCRQRFLLKNLRP (TRIM21 RING domain (UniProt P19474))	0
B5 (IRF2BPL RING domain)	0
B6 (RNF170 RING domain)	0

Study 2
Target: TAR DNA-binding protein 43, full length, His tag (TARDBP, Homo sapiens, UniProt Q13148, residues 1-414)
Technique: RNA Bind-n-Seq
Molecule type: RNA
Matrix: in vitro
Concentration: 20 nM
Notes: 6-mer, flanks averaged, single round
With: 150 mM KCl
Relative to: input library
Reading: higher = stronger binding
Strand	6-mer enrichment (R)
AUGGGU	1.89
UUUAUG	0.709
CCCGUA	0.631
AACAGA	0.709
UGACAC	0.785
GAACCC	0.705
GGAGGA	3.76
AGAAAU	0.656
CCCACC	0.628
ACAGGA	0.941
CCGAGC	0.845
UGCCAU	0.645
GGUCUU	0.793
CUCAUC	0.537
GGUCGU	1.29
CUGAAA	0.633
GAUGAA	0.968
GUGUGU	2.16
CAUCGC	0.637
GACCUA	0.678
UCUCAA	0.551
ACUUUA	0.587
GAUAAU	0.687
UAUCUA	0.54
AGCGUU	0.7

Study 3
Target: CCNA2, cyclin fold, Cln2 fusion (human)
Technique: yeast growth competition, sequencing
Matrix: yeast
Notes: weak parent motif
Relative to: not given
Reading: higher = stronger binding
Starting sequence: FOXM1 docking peptide (human); PHLARPIKVESPP
Substitution	normalised enrichment score
PHLARPIKVASPP [E10A]	-0.487
PHLARPIKVESAP [P12A]	-1.47
PHLARPAKVESPP [I7A]	-0.564
PHAARPIKVESPP [L3A]	-0.115
AHLARPIKVESPP [P1A]	-0.681
PHLARPIKVEAPP [S11A]	-0.592

Study 4
Target: RING finger protein unkempt homolog, zinc fingers 1-6, SBP tag (UNK, Homo sapiens, UniProt Q9C0B0, residues 30-357)
Chain of UniProt Q9C0B0 (30-357, looked up): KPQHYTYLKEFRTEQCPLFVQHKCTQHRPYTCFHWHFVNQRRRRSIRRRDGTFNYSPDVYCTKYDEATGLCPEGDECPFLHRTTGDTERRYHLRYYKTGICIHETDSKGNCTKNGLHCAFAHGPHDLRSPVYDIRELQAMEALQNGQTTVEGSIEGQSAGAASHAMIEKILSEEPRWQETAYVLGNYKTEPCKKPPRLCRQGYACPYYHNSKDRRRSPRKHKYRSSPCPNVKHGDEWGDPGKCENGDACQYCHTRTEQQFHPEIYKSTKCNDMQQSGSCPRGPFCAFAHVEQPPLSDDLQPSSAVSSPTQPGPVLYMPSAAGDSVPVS
Technique: RNA Bind-n-Seq
Molecule type: RNA
Matrix: in vitro
Concentration: 100 nM
Notes: RNA with constant flanks, vertebrate orthologous sites, ends assumed
Relative to: input RNA pool
Reading: higher = stronger binding
Strand	bound/input enrichment [ratio]
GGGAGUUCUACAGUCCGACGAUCGUCGGAGCUACAUUUAGAGUGGAUUCUUCCUCACUUCCUCCAUGAAGAAAAAAGCCAGAGCACCUUCCUUACAGACUUGAUUUUGCCACUUUUGUUUCCUACAUUCACAUGUCUGUCACCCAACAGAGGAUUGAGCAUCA	0.818
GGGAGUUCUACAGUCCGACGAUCAGUGCUGAAUAGUAUUAAACGUUUUCGUCUUCCUUUACCUUUUAUCCCCUACCUAAUAUCUAGUCUACUUUUUUAAAUUUCAAAUUUCACUGCUCUUUGAAUUGAUAAUUUCAAUUUUCACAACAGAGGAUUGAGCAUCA	7.16
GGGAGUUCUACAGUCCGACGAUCUCCCAGCACUUUGAUAAAAAGCGUGGACUGGUUGCUUGUAUUUUCCUUAUUCUUUUUAAUUAGUUUUAUUAUGUAUGCUACCAUUCGAACUGAGAGCAUUCGGUGGCUAAUUCCAGGACACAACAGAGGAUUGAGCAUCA	1.77
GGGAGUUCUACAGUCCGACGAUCUCCCAGCACUCUGAUAAAAAGUGUGGACUGGUUGCUUGUAUUUUCGUUAUUCUUUUUAAUUAGUUUUAUUAUGUAUGCUACCAUUCGAACUGAGAGCAUUCGGUGGCUAAUUCCAGGACACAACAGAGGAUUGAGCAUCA	1.9
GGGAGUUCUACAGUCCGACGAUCUUCGCUGAGCGACAGCCUGCCGUCGGUGGCGGAGUCGCACUCGAGCCAUUUUUCCGAGUUCAGCUGCUCGGACCUGGAGAGCAUGAAGACUUCCUGCAGUCACGGGUCCAGUGACUACCACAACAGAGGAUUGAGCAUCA	0.217
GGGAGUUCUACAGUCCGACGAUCUUACAGUCAUUGAUGGACUCUAUUUUUUUAUUAUUACUUGGACCUUGGUCGUUUUUAUACUAGCAAAAUGUCUUGUUUUGAUUUGUGUUGUUUUGGUUUUUUUGUUUCGUUUUGUUUUUUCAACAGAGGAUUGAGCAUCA	1.58
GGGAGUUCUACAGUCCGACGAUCCUCCCCUUAAUCCCAUCUCAUCUGUUUCAUAGUGCUGAAAUUCUGUCUUCAGCCUUAUUUUUAGCGAACUUAUUCUAAUUCUAGUGAAACUUCCAGUGUGGAUACUGUGAGCUAUAUGGACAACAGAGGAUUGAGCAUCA	1.98
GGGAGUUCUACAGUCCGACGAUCAAGAUGGUGGUUGUACAUUACUUCAUUUAGAAAAUAUAAAGAUUCAUUUUGUUUUGAAGCUAGGUGUUAAACUGGAAUAGCUAUUAUACCCCAGAGAACGUGGCAAUUGUGCCCUUCCUUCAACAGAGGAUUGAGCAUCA	1.22
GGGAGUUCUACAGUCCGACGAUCCUCUUUCCUAGGUUGGACCUACUGGAAAAGUCAUAGGAAUUGAUCACAUUAAGGAGUUGGUAGACGACUCAAUAAAUAACGUCAGAAAGGAUGACCCAAUGCUUUUGUCUUCAGGGAGGGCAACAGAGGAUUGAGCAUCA	0.437
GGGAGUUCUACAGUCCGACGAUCUGUCUGCCUCAUUCUGAAAUUUACACAGUAGACCAUUUGUCAUCCAUGCUGUCCCACAAAUAGUUUUUUGUUUACGAUUUAUGACAGGUUUAUGUUACUUCUAUUUGAAUUUCUAUAUUUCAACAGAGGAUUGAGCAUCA	1.29
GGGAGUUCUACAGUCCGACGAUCUCCUCUGAACCCCAUAUCUUCUGUUUCAUAAUGCAGAAGUGUUCUUUUGAAUUAUAUUAGUGGACUUGUUUUAAUUUUAGAAAAACUUCCAGUAAGAUACUGUGGGCUAAUAUGGAAAAACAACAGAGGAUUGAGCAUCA	1.95

Study 5
Target: ABI1, truncated, D143A, DHFR fusion (Arabidopsis thaliana)
Technique: DHFR PCA, deep sequencing
Matrix: yeast
Notes: methotrexate growth selection, single substitutions
With: (+)-ABA 0.0091 µM
Relative to: wild-type fitted maximum
Reading: higher = stronger binding
Starting sequence: PYL1, truncated, DHFR fusion (Arabidopsis thaliana); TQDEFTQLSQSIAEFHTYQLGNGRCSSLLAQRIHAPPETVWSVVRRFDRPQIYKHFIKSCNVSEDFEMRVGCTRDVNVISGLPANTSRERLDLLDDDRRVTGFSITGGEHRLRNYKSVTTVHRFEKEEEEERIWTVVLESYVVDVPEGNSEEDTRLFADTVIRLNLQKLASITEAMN
Substitution	relative binding score [%]
R24V	4.56
N165A	0.624
S104W	0.6
P146C	21
G81F	-11.2
V118Q	-12.5
R155G	-1.53
D92Y	-5.11
M176L	14.8
N114V	-0.0781
T86F	26.2
L29I	34.7
T39M	30.2
I79S	19.6
S87K	5.53
E109K	-3.87
L29Q	1.79
Q51N	-11.5
S104T	39.9
R74I	-4.43

Study 6
Target: Interferon regulatory factor 7, full length, phosphomimetic (IRF7, Homo sapiens, UniProt Q92985, residues 1-503, S471D/S472D/S475D/S476D/S477D/S483D/S484D/S487D)
Chain of UniProt Q92985 (whole entry, unmodified, looked up): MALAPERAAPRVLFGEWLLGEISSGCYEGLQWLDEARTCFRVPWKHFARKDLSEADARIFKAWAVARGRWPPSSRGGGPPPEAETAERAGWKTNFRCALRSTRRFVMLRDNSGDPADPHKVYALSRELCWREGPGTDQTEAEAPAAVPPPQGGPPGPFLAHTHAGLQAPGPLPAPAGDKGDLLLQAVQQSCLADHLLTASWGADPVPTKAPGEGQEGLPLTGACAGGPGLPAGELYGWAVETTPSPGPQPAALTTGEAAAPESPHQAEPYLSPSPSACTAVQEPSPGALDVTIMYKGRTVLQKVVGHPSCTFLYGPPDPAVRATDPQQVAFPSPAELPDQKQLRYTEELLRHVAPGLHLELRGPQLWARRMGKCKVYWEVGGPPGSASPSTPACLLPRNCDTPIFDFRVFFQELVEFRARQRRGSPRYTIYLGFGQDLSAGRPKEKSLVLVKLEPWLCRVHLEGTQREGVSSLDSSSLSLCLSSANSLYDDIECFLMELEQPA
Technique: protein-binding microarray
Molecule type: double-stranded DNA, one strand shown
Matrix: in vitro
Concentration: 2200 nM top
Notes: 60-bp whole probe
With: salmon DNA 0.4 mg/ml
Relative to: random background probes
Reading: higher = stronger binding
Constant ends, left off below: GCCTAGCAC … GTCTTGATTCGCTTGACGCTGCTG
Strand	fitted relative affinity
TCATTTTTGCTTACGATACTGTGCTAG	2.33 z-score
TTAGATATCGGGTTACGATTAGTGCTA	0.374 z-score
TAAGAAAAGCCACCAGGACCGTGCTAG	-1.32 z-score
GACGGTATCTTTATCCTGACGTGCTAG	0.684 z-score
TTAGGTTTCGACTATCTGTTAGTGCTA	2.77 z-score
TTTACTTTCTATCTCTGTTTGTGCTAG	6.88 z-score
GACGATTCCAGTTTCGTGACGTGCTAG	3.01 z-score
TTAGATTTCGGGACTGCATTAGTGCTA	1.16 z-score
TTAGGTATTGGTTTCGGTTAGTGCTAG	6.48 z-score
TTAGATATCGGCTATCGATTAGTGCTA	-0.154 z-score
GACGGTATCCTACTGCTGACGTGCTAG	0.588 z-score
TTCGGTATCGGTATCGGTTAGTGCTAG	1.69 z-score
TTAGAACTGAGACTGGTTTAGTGCTAG	-0.448 z-score
CTGGAATCAATTTATTGACCGTGCTAG	0.0552 z-score
TTAGGTATCGGGGCTGGGTTAGTGCTA	-0.0791 z-score
TTAGGACTGGGTACTGGGTTAGTGCTA	-0.947 z-score
GTCCCCTGTCGGGAGGTCAGGTGCTAG	-0.158 z-score
TTAGGTATCGGACTGGTTTAGTGCTAG	0.249 z-score
TTAGGTATCGGTATCCGTTAGTGCTAG	1.22 z-score
TTAGATTTCGGGACTGGAGTAGTGCTA	0.945 z-score
TTAGGACAGCTTCTCCTTTAGTGCTAG	0.324 z-score
GACGGACTCGACTTTCGGGACGTGCTA	2.74 z-score

For quick reference, copied from above (study 2):
Strand	6-mer enrichment (R)
AGCGUU	0.7
CUCAUC	0.537
CCCACC	0.628
GUGUGU	2.16
UGCCAU	0.645
GAUGAA	0.968
UAUCUA	0.54
CCCGUA	0.631
